Results gathered from unrelated publications.
Each line is one published result; not all experiments were run side by side.
Target: Mitogen-activated protein kinase kinase kinase 6 (MAP3K6, Homo sapiens, UniProt O95382)

Compound	test	system	conditions	how to read	endpoint	result
CNC1C[S+]2CC[S+]3CC[S+](C1)[Ru-4]321([N]=C=S)[n]2c3ccc(OC)cc3c3c4c(c5cc(F)c[n+]1c5c32)C(=O)NC4=O (stereo not drawn)	KinomeScan	–	0.1 µM	reference: untreated	remaining binding	88%
COc1cc(Nc2nc(C)cc(-c3cnn4nc(OC)ccc34)n2)cc(C(F)(F)F)c1	inhibitor	–	1 µM, ASK2	reference: control	remaining activity	66%
CC(C)=CC1OC(C)(C)C2C=C3C(=O)C(Cl)=CC(O)C3C3C(O)C4OC4C(=O)C132 (stereo not drawn)	cell-free assay, competition with immobilised ligand	–	10 µM	–	remaining binding	93%
Cc1ccc(-c2c(/C=C(\C#N)C(=O)NC(C)C)n(CCCO)c3ncnc(N)c23)cc1	cell-free assay, competition with immobilised ligand	–	1 µM	–	remaining binding	87%
CCn1cc(C(=O)O)c(=O)c2c(N)c(F)c(NC3CCCCC3)cc21	kinase activity	–	0.1 µM, together with: ATP at Km	–	inhibition	-4.4%
Cc1cnc2nc1Nc1cccc(c1)COC/C=C/COCc1cc(ccc1OCCN1CCOCC1)N2	binding, competition with immobilised ligand	–	0.1 µM	–	remaining binding	71%
CNC(=O)C1CCN(c2cc(C)c(F)cc2NC(=O)c2ccc(-c3cc(O)ccc3C)c(C)c2)CC1	binding, competition with immobilised ligand	–	1 µM	–	remaining binding	92%
CCN1CCN(Cc2ccc(C(=O)Nc3ccc(C)c(NCc4cnc5[nH]ccc5c4OC)c3)cc2C(F)(F)F)CC1	binding, competition with immobilised ligand	–	1 µM	–	remaining binding	16%
COc1c(Cl)cccc1Nc1c(-c2ccncc2C#C[C@@]2(C)CCCN2C(=O)/C=C/CN(C)C)[nH]c2c1C(=O)NCC2	binding, competition with immobilised ligand	–	3 µM	–	remaining binding	71%
COc1cc(Nc2nccc(-c3cnn4nc(OC)ccc34)n2)cc(C(F)(F)F)c1	binding, competition with immobilised ligand	–	1 µM	–	remaining binding	100%
C=CC(=O)N1CCCC(n2c(=O)c3ncccc3n(Cc3ccc(Oc4ccccc4)cc3)c2=O)C1 (stereo not drawn)	cell-free assay, competition with immobilised ligand	–	1 µM	–	remaining binding	80%
C=CC(=O)N1CCc2ccc(-n3c(=O)ccc4cnc5ccc(-c6cnn(C)c6)cc5c43)cc21	KINOMEscan	–	1 µM	reference: DMSO control	remaining binding	100%
Nc1ncc2c(n1)-c1c([nH]c3ccc(C4=CCOCC4)cc13)CCC2	binding, competition with immobilised ligand	–	1 µM	–	remaining binding	98%
C=CC(=O)Nc1cc(-c2nn(C3CCN(CCNC(=O)[C@H](C)CCC45CC6CC(CC(C6)C4)C5)CC3)c3ncnc(N)c23)ccc1Oc1ccccc1	inhibitor, KiNativ profiling	biochemical	2 µM	–	inhibition	20.8%
Nc1ncc(-c2cc(-c3cnn(CC(F)(F)F)c3)ncc2F)nc1C(=O)NC1CNCC(F)C1 (stereo not drawn)	enzyme activity	–	1 µM	reference: DMSO control	remaining activity	99.4%

For quick reference, copied from above:
Compound	test	system	conditions	how to read	endpoint	result
C=CC(=O)N1CCCC(n2c(=O)c3ncccc3n(Cc3ccc(Oc4ccccc4)cc3)c2=O)C1 (stereo not drawn)	cell-free assay, competition with immobilised ligand	–	1 µM	–	remaining binding	80%
